# Results from different studies.
# Every numbered part comes from another study and shows a few of its results, in no order. Changes are numbered by the printed parent chain.

# Study 1 — method: EMSA with sequencing; molecule type: double-stranded DNA, one strand shown; medium: in vitro; tested at: 10 and 20 nM; baseline: negative control set to 0; reading: higher = stronger binding
# Target: Hepatocyte nuclear factor 3-alpha (Foxa1, Mus musculus, UniProt P35582, residues 1-468, full length assumed)
# Notes: whole designed probe, mean of two concentrations, ends assumed
# Target sequence (chain): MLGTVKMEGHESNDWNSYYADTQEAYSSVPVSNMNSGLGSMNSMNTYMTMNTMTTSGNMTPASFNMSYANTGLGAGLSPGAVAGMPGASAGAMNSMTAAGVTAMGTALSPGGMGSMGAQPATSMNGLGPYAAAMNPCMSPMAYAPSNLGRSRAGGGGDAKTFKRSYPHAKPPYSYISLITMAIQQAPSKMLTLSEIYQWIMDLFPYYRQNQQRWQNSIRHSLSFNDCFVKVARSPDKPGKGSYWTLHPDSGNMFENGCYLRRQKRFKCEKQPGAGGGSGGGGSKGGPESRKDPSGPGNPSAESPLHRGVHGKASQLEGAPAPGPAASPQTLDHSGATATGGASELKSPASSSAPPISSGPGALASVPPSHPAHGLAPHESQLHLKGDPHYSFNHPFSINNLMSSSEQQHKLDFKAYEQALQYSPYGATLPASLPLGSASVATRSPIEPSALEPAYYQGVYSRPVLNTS
Strand,normalised bound fraction [ratio]
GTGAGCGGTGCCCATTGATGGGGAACTATATATATATATACTGCCTCAATGTTTTTTAACATGAAATTATTTAGATTATCTAAGACAAGCTGGCTAGGAGTTGTTTTGATTAGAATCAAAGTAATCTTAAAACATATTGGCTCAAATTGCTTAGTGGGCGCAATTAAATTTATGATGTATATAACACCATCAGCTTATTTTGAAAGTAAAGTTCTCACTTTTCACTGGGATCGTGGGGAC,0.0371
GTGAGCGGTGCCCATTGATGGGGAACTTAACTGATTGGAACAGTTACTTGGAAACATTAAATTGGTGGCAGAAAAAGTGAAACAATTATAAATGCAATGATCAAAAACAGAAAATAAAAAGTAATCTTGAATTTAAGACAATGATCTAATCAAGAAGCAATGAATTCCTGAGTGAATGAGTATAGTGGGAAAAAACAGAGAGGAGTAAATATGGGAGCTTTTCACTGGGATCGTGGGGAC,0.00549
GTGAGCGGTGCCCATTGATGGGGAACCAGCCTGCCCTTTTTCTGAAATATTAGTAATTTTCTTTTTCTTTTTCCTTTTTTTTTTTTTTTTTGGACAATTAAGGGAGACTTGTCCAACTATGTAATCTCAGAAAGCACTCAAGCAACAATGCCCTCGTAATTAGCAGCGGGCAGGCCGGCGTCTGGGCTGGCCCGTCAGGCGCGGCGTCAGCTGAAAGGGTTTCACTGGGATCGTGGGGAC,-0.0596
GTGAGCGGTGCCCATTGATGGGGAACCTTACCCAGATTCAGCTGTTTGTCTTGATTAGGCATTCTCCTGTGGCTGTAAACTTTTGATGACATTCAAGAGCTCCAATGAAGTTGATTCTGAGATTGCCCATTTACATACTGTTTTTGTGAAGGGATGGAGTTGTGGAGTTCCCTACTCCACTACCTTCACTGACATTACTTCGTTTAAGTCCTTCATAAGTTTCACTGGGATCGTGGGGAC,0.0425
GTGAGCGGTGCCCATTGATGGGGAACACCCATGTTTTAATAATCCAGAACATCAGTTGAGTACAAAATCTCTTTTTCTAATTAAGAATGTTTGACCACAAGAGGGAGTTCCTTGCCAACAGATTACTTAGCCTCAGCAGATATGATGGGCCAGAATTTACACAGAAAAATACCTTCAAATATATTTAGTTTCTTCAGTGCTTTTAGATTGAGAAAATGATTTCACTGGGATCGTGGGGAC,0.0168
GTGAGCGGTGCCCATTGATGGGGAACTGTTTTATGCAAGGTCTTAAAAGGGAAAATTTTTCCAAGTTACTGTTTATACCTGTGGTATGATAGTAATTACTATCATAATGTTTACTTTATGTTTACTTTGTAAAATGTTTACTTTTGTAAAATGTAGAACTAAAGAGTTTTTGAAGCTTATATTTTCTCTTTCAATCTAAACTTGCATGCTTCCATTTTATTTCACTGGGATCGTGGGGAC,0.549
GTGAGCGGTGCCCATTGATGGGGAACTTGCAGGCTGCAGTGATGTCCTTCATATCACGTCATCTTAGTGCCACTTCATCTTTATTGGCATCTCTGGGAGGAACAAAACCCCAGTGGTATGCAAACACCGTCATGGGGACTTGCTTCAAGCCATGGGAAGTTTCACGCAAAGCCAGTTTCTCAGTAGGGCAAATGTTGTGTAAAAGTACAAGAAGTTTGATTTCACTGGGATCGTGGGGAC,0.15
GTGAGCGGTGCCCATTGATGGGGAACATCTTCCCCCTCTTCCTTGCCCCACCAGCTCACCTTCCCGGGTTTGTGGAAGAACAAAATTATAATAAAGCCGGCATTCGTTAACCCTCTTCTGGCGCAAACTGCTGTTTGCTCTGGATGAATCATGGTCCTTTGGCGACGCCAGGCTCCGGGAGAGCAAAGCACCGTGTCAGGGCCATGATCCGGGGTGGCCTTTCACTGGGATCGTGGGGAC,0.174

# Study 2 — method: RNA Bind-n-Seq; molecule type: RNA; medium: in vitro; tested at: 365 nM; baseline: no-protein control; reading: higher = stronger binding
# Target: RNA binding protein fox-1 homolog 2, RRM domain, GST-SBP tag (RBFOX2, Homo sapiens, UniProt O43251-10, residues 100-194)
# Notes: natural RNA segment, single round, ends assumed
# Construct (chain): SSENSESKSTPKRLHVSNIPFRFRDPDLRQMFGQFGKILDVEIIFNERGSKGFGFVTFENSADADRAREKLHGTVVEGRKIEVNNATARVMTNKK
Strand,RBNS enrichment (R)
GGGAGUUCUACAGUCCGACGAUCGCUUCAGUAGUAGCUAAGCCAUUAAUACAGUUUGCAUCAAUUUCCCCAUUUAUUUAUAAUCAGCCUUUCUUUUAGUCCUAGUGCCUGAAUCAAUGAGUGAGAAUACUAGUUGGAAUUCUCGGGUGCCAA,0.517
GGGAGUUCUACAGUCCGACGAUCGGAGCUACUCAUCCCCAGCAGUUAGCGCUCCGCCCCGGUUGACUCUUGAUGGCUUUGCGGAGCCCCUGCAAAGUGUCACUAGUCAAUGGGAACAAGAGGAAUGUCCCCUGUGGAAUUCUCGGGUGCCAA,0.285
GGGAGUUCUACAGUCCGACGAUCGUUUUUAAGUGUUUGCCUGUGGCUACUUCCGUUCUAUAGCUCAAGAAUAUGCCAUUACAUCAUAGUCAAGGGGUUGCUAUGAGAACUGUAGUAGAGAAUACCACUGUGAGUGGAAUUCUCGGGUGCCAA,2.92
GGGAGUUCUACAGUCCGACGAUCUGUGCCCUUGGGCUGAGCCCUAGACUUGGGGCUCUGUACAUAGCUAUGAAGAAAAACACAAAGUGUAUAAAUCUUGAGUAUAUAUUUACAUGUCUUUUUAAAAAGGGUCGUGGAAUUCUCGGGUGCCAA,0.317
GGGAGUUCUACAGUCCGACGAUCGGCUGGGGGUGGCAAAAUCAAUGACUUUUCUAACUAGGGAAGCCCUGUGGCCUCCAAAUUCACUGACAUGUUUUGGAACAGCUAGAAAUAUGAGCAGCAUGGAUAACCUGUGGAAUUCUCGGGUGCCAA,1.07
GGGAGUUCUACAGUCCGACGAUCAAAUGAUCUAUCUUUUGGUCCACUUGCCUAAUUUUCCCAUUUUCCACCCCUGGCCCCCUACCCUUAGAUUCUCUGUGUUCCACAAGGAGACAUCAUGAGAUGUCUUCCUUUGGAAUUCUCGGGUGCCAA,0.318
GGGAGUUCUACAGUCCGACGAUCCGCAGGCCACAGCAGACAGGGUGGGAGCCCUGUACAGCUUGAUAACCCUUAAUAAAGAAGGGACUUUAUCUGGUUGUGGCAUCUUUUUUUUUCCCCCACGCAGCAGUUUGUGGAAUUCUCGGGUGCCAA,0.553
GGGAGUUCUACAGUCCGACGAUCCCAUUGUACAGAGGCCCAGAUUUCUGUAUGUGUCGUGGUCAAUGGCUGGGUUGACAGAGUGGUCUGCCUGUUUGUUGUCUGUGCUCAGCUUGCAGAAGCUGCCAGCUGUGUGGAAUUCUCGGGUGCCAA,0.853

# Study 3 — method: protein-binding microarray; molecule type: double-stranded DNA, one strand shown; medium: in vitro; tested at: 0.8 µM; notes: whole 60-bp probe, no competitor; reading: higher = stronger binding
# Target: Centromere-binding protein 1, full length, N-terminal tag (CBF1, Saccharomyces cerevisiae, UniProt P17106, residues 1-351)
# Sequence of UniProt P17106 (whole entry, looked up): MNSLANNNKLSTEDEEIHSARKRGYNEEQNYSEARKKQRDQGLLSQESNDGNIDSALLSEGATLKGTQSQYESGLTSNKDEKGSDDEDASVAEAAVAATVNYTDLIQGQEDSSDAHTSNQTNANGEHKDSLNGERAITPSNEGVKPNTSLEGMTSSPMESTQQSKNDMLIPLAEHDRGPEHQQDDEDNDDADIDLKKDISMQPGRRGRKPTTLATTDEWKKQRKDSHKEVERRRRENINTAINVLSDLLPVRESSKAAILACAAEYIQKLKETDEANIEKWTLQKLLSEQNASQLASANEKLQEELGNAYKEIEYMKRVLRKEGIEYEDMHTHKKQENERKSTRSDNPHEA
Strand,fluorescence intensity
GAACACGGCCACAGTGGCACGTGACATTTACTCTAGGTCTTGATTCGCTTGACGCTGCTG,20700 a.u.
CTAGGCTCTTCAAACCATGTGACACCAAACTTCTTCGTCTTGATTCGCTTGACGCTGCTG,3860 a.u.
CTAGTACGGAAAGATCACATGTATATATTTAACTTCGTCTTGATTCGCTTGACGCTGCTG,2580 a.u.
CTAATTTCGATCACCATCGTGGTGCTCTTTGTCTTCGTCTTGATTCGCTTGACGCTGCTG,536 a.u.
CCTAACTACTATAATCATGTGCAATAGCTTCGTACAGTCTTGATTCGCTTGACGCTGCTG,1010 a.u.
GAAGTATGGACTCTTTGGGTGATGAAAAGTAATTAGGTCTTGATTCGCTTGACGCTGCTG,532 a.u.
GAACAGTATCTACTGCACGTTCTTCCGTAAGTATAGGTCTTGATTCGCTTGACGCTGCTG,777 a.u.
GAACTATTGGACAGTCTCCTGTCTTACACTAGCTAGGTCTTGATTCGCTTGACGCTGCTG,497 a.u.

# Further values, each from its own experiment
# Parent: viral docking peptide; YKVKRRLVFGADD; partner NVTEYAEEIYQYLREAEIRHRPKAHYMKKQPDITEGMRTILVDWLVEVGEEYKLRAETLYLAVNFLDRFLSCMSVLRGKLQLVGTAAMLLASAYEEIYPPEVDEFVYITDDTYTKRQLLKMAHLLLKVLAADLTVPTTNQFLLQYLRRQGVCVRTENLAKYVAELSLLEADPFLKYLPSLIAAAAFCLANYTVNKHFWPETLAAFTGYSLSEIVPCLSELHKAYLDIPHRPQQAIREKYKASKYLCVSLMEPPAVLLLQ
Substitution,target,assay,test system,setting,how to read,endpoint,value
D12A,"CCNA1, cyclin fold, Cln2 fusion (human)","yeast growth competition, sequencing",yeast,strong parent motif,"baseline: not given, higher = stronger binding",normalised enrichment score,1.01

# Excerpt of the above (study 2):
Strand,RBNS enrichment (R)
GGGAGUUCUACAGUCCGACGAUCUGUGCCCUUGGGCUGAGCCCUAGACUUGGGGCUCUGUACAUAGCUAUGAAGAAAAACACAAAGUGUAUAAAUCUUGAGUAUAUAUUUACAUGUCUUUUUAAAAAGGGUCGUGGAAUUCUCGGGUGCCAA,0.317
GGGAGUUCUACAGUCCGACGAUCGGCUGGGGGUGGCAAAAUCAAUGACUUUUCUAACUAGGGAAGCCCUGUGGCCUCCAAAUUCACUGACAUGUUUUGGAACAGCUAGAAAUAUGAGCAGCAUGGAUAACCUGUGGAAUUCUCGGGUGCCAA,1.07
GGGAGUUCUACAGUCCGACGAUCAAAUGAUCUAUCUUUUGGUCCACUUGCCUAAUUUUCCCAUUUUCCACCCCUGGCCCCCUACCCUUAGAUUCUCUGUGUUCCACAAGGAGACAUCAUGAGAUGUCUUCCUUUGGAAUUCUCGGGUGCCAA,0.318
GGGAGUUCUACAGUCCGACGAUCCGCAGGCCACAGCAGACAGGGUGGGAGCCCUGUACAGCUUGAUAACCCUUAAUAAAGAAGGGACUUUAUCUGGUUGUGGCAUCUUUUUUUUUCCCCCACGCAGCAGUUUGUGGAAUUCUCGGGUGCCAA,0.553
